Experimental data from different studies.
± marks the error that the study gave.
Cell line: HCT-116

SMILES = O=C(NCCCCCCNc1n[n+]([O-])c2ccccc2[n+]1[O-])C(F)(F)F; test = cytotoxicity, MTT; system = 10% FBS medium; setting = 6 h + 18 h, hypoxia 3% O2; IC50 = 63.9 ± 3.8 µM
SMILES = CO[C@@H]1[C@@H](O[C@@H]2O[C@H](C)[C@@H](O[C@H]3C[C@@](C)(O)[C@@H](OC(=O)Cc4ccc(C(C)(C)C)cc4)[C@H](C)O3)[C@H](N(C)C)[C@H]2O)[C@@H](CC=O)C[C@@H](C)[C@@H](O[C@H]2CC[C@H](N(C)C)[C@@H](C)O2)/C=C/C=C/C[C@@H](C)OC(=O)C[C@H]1O; test = cell growth or viability, CCK-8; setting = 72 h; IC50 = 2.24 µM
SMILES = Cc1cc(C)c(N[C](NCc2cccc(N[C](Nc3c(C(C)C)cccc3C(C)C)=[Pd-]([Cl])([Cl])[C]#[N+]c3c(C(C)C)cccc3C(C)C)c2)=[Au][Cl])c(C)c1; test = cell growth or viability; IC50 = > 100 µM
SMILES = CC(C)Cn1cc(-c2ccnc(Nc3ccc(C(=O)Nc4ccccc4N)cc3)n2)nn1; test = cell growth or viability, SRB; setting = 72 h; IC50 = 4.72 µM
SMILES = COc1ccc(NC(=O)c2ccc(NC(=O)CN3C(=O)S/C(=C\c4ccccc4OC)C3=O)cc2)cc1; test = cell growth or viability, MTT; IC50 = 28.9 µM
SMILES = CN1CCCC1CS(=O)(=O)NC12CCCC(C)(CCC3C1CC3(C)C)C2 (stereo not drawn); test = cell growth or viability, CCK-8; setting = 72 h; IC50 = 34.6 µM
SMILES = CO[C@@H]1[C@@H](O[C@@H]2O[C@H](C)[C@@H](O[C@H]3C[C@@](C)(O)[C@@H](OC(=O)CN4CCOCC4)[C@H](C)O3)[C@H](N(C)C)[C@H]2O)[C@@H](CC=O)C[C@@H](C)[C@@H](O[C@H]2CC[C@H](N(C)C)[C@@H](C)O2)/C=C/C=C/C[C@@H](C)OC(=O)C[C@H]1O; test = cell growth or viability, CCK-8; setting = 72 h; IC50 = 8 µM
SMILES = N#Cc1c(F)c(Cl)c2nc(SCc3ccc4ccccc4c3)nc(N)c2c1F; test = cell growth or viability, MTT; setting = 96 h; IC50 = 5.63 µM
SMILES = Cc1cc(C)c([N+]#[C][Pd-]([Cl])([Cl])=[C](Nc2ccc(CN[C](Nc3c(C(C)C)cccc3C(C)C)=[Au][Cl])cc2)Nc2c(C)cc(C)cc2C)c(C)c1; test = cell growth or viability; IC50 = > 100 µM
SMILES = CSC(=N/N=C(\C)c1ccc(S(=O)(=O)N2CCC(C)CC2)cc1)SC; test = cell growth or viability, MTT; IC50 = 12.6 µM
SMILES = O=c1c(Cc2ccccc2)nc2ccccc2n1Cc1cn(-c2ccc(S(=O)(=O)Nc3ncccn3)cc2)nn1; test = cell growth or viability, MTT; setting = 72 h; IC50 = 0.217 µM
SMILES = Oc1ccc2c(c1)OCc1c-2oc2cc3c(cc12)OCO3; test = cell growth or viability, MTT; setting = 72 h; IC50 = 21.9 µM
SMILES = CC(C)c1ccc2c(c1)CCC1[C@](C)(C(=O)OCCSc3nc(O)c(C#N)c(-c4ccc(O)cc4)n3)CCC[C@]21C (stereo partly drawn); test = cell growth or viability, MTT; setting = 48 h; IC50 = 9.53 to 19.4 µM
SMILES = [Cl][Au]1[P](c2ccccc2)(c2ccccc2)C[P](c2ccccc2)(c2ccccc2)[Au]([Cl])[P](c2ccccc2)(c2ccccc2)C[P]1(c1ccccc1)c1ccccc1; test = cell growth or viability, trypan blue; setting = 48 h; IC50 = 1.3 µM
SMILES = Cc1c(C)c(C)[c-](C)c1C.O=Cc1c[c-]c(-c2ccccn2)cc1.[Cl-].[Ir+3]; test = SRB; setting = 24 h, 72 h recovery; IC50 = 21.3 ± 0.7 µM
SMILES = COc1ccc(NC(=O)CCc2nc3cc(Cl)ccc3[nH]c2=O)cc1; test = cell growth or viability, MTT; IC50 = 5.81 µM
SMILES = C=C(C)[C@@H]1CC[C@]2(C(=O)OCO/N=[N+](\[O-])N3CCCC3)CC[C@]3(C)[C@H](CC[C@@H]4[C@@]5(C)CC[C@H](OC(C)=O)C(C)(C)[C@@H]5CC[C@]43C)[C@@H]12; test = cell growth or viability, MTT; setting = 72 h; IC50 = 1.53 µM
SMILES = NC(=S)NNC(=O)c1cc2ccc(O)cc2oc1=O; test = cell growth or viability, SRB; setting = 72 h; IC50 = 7.5 µM
SMILES = CC(C)c1cccc(C(C)C)c1[N+]#[C][Pd-]([Cl])([Cl])=[C](Nc1cccc(CN[C](Nc2c(C(C)C)cccc2C(C)C)=[Au][Cl])c1)Nc1c(C(C)C)cccc1C(C)C; test = cell growth or viability; IC50 = 40 µM
SMILES = Cc1ncc(COP(=O)(O)O)c(/C=N\NC(=O)Cn2c(=O)c(Cc3ccccc3)nc3ccccc32)c1O; test = cell growth or viability, MTT; setting = 72 h; IC50 = 0.123 µM
SMILES = CN1CCC2(CC1)C/C(=N\NC(=O)Nc1ccc(Cl)cc1)c1ccccc1O2; setting = 48 h; IC50 = 2.58 ± 0.13 µM
SMILES = CC(C)Cn1cc(-c2ccnc(Nc3ccc(N4CCN(CCCCCCC(=O)NO)CC4)cc3)n2)nn1; test = cell growth or viability, SRB; setting = 72 h; IC50 = 3.53 µM
SMILES = Cc1cc(N2CCN(C(=O)CN3CCN(C)CC3)CC2)n2ncnc2n1; test = cell growth or viability, MTT; IC50 = 65.8 µM
SMILES = CCC1=C(CC)C2=[N+]3C1=Cc1c(CC)c(CC)c4[n]1[Ir-3]31([n+]3ccccc3)([n+]3ccccc3)[n]3c(c(CC)c(CC)c3=CC3=[N+]1C(=C4)C(CC)=C3CC)=C2.Cl; test = cell growth or viability, MTT; setting = 72 h; IC50 = 0.25 µM
SMILES = Cc1nc2ccccc2c(=O)n1N; test = cytotoxicity, LDH release; setting = 24 h, 50% viability reduction; IC50 = 531 ± 16.1 µM
SMILES = CC(C)c1cccc(C(C)C)c1N=[C](NCc1ccc(N)cc1)[AuH][Cl]; test = cell growth or viability; IC50 = > 100 µM
SMILES = CCNC(=S)N/N=C(\C)c1c(O)c2ccccc2oc1=O; test = cell growth or viability, MTT; setting = 48 h; IC50 = 17.8 µM
SMILES = CCN1CCC2(CC1)C/C(=N\NC(=O)Nc1ccc(C)cc1)c1ccccc1O2; setting = 48 h; IC50 = 21.3 ± 0.91 µM
SMILES = CSc1nc(Nc2cccc(/C(C)=N/NC(=O)c3ccc(O)cc3)c2)c(C#N)c(-c2ccccc2)n1; test = cell growth or viability, MTT; setting = 48 h; IC50 = 21.4 µM
SMILES = COC(=O)[C@H](CC(C)C)NC(=O)CCn1nc(Cc2ccccc2)c2ccccc2c1=O; test = cell growth or viability, MTT; setting = 48 h; IC50 = ≥ 50 µM
SMILES = O=c1[nH]c2ccccc2nc1/C=C/c1ccccc1Br; test = cell growth or viability, MTT; setting = 72 h; IC50 = 12.3 µM
SMILES = CCCCSc1nc(N)c2c(F)c(F)c(C#N)c(F)c2n1; test = cell growth or viability, MTT; setting = 96 h; IC50 = 9.32 µM
SMILES = COc1ccc(NC(=O)O[C@H]2[C@H](C)O[C@@H](O[C@H]3[C@H](N(C)C)[C@@H](O)[C@H](O[C@H]4[C@@H](CC=O)C[C@@H](C)[C@@H](O[C@H]5CC[C@H](N(C)C)[C@@H](C)O5)/C=C/C=C/C[C@@H](C)OC(=O)C[C@@H](O)[C@@H]4OC)O[C@@H]3C)C[C@@]2(C)O)cc1; test = cell growth or viability, CCK-8; setting = 72 h; IC50 = > 50 µM
SMILES = CC(C)c1cccc(C(C)C)c1[N+]#[C][Pd-]([Cl])([Cl])=[C](Nc1ccc(CN[C](Nc2c(C(C)C)cccc2C(C)C)=[Au][Cl])cc1)Nc1c(C(C)C)cccc1C(C)C; test = cell growth or viability; IC50 = 0.3 µM
SMILES = O=C(NCCCCCNc1n[n+]([O-])c2ccccc2[n+]1[O-])C(F)(F)F; test = cytotoxicity, MTT; setting = 24 h, hypoxia; IC50 = 44.1 µM
SMILES = CSc1nc(Nc2cccc(/C(C)=N/NC(=O)c3ccc([N+](=O)[O-])cc3)c2)c(C#N)c(-c2ccccc2)n1; test = cell growth or viability, MTT; setting = 48 h; IC50 = 7.15 µM
SMILES = O=C(NCCCNc1n[n+]([O-])c2ccccc2[n+]1[O-])C(F)(F)F; test = cytotoxicity, MTT; system = 10% FBS medium; setting = 6 h + 18 h, hypoxia 3% O2; IC50 = 38.6 ± 8.1 µM
SMILES = O=C(NCCOc1cnc(-c2ccc(N3CCN(C(=O)CN4CCC(C(=O)Nc5ccc6[nH]nc(-c7ccncc7)c6c5)C4)CC3)cc2)nc1)OC1CCC=CCCC1 (stereo not drawn); test = cell growth or viability, resazurin; setting = 96 h; IC50 = 0.1 µM
SMILES = Cc1cc(=O)oc2cc(OCC(=O)NCC(=O)NCC(=O)NN)ccc12; test = cell growth or viability, MTT; IC50 = 94.7 µM

Some of these lines once more:
SMILES = CC(C)Cn1cc(-c2ccnc(Nc3ccc(C(=O)Nc4ccccc4N)cc3)n2)nn1; test = cell growth or viability, SRB; setting = 72 h; IC50 = 4.72 µM
SMILES = NC(=S)NNC(=O)c1cc2ccc(O)cc2oc1=O; test = cell growth or viability, SRB; setting = 72 h; IC50 = 7.5 µM
SMILES = O=c1c(Cc2ccccc2)nc2ccccc2n1Cc1cn(-c2ccc(S(=O)(=O)Nc3ncccn3)cc2)nn1; test = cell growth or viability, MTT; setting = 72 h; IC50 = 0.217 µM
SMILES = Cc1cc(C)c([N+]#[C][Pd-]([Cl])([Cl])=[C](Nc2ccc(CN[C](Nc3c(C(C)C)cccc3C(C)C)=[Au][Cl])cc2)Nc2c(C)cc(C)cc2C)c(C)c1; test = cell growth or viability; IC50 = > 100 µM
